Assay results pooled from the literature.
Each line is one published result; not all experiments were run side by side. ± gives the spread as reported.

Compound | target or system | assay | system | conditions | scale | measurement | value
CC[n+]1cccc2cc(/C=N/NC(=O)c3cccc(C(=O)N/N=C/c4ccc5c(ccc[n+]5CC)c4)c3)ccc21 | telomeric G4 DNA hybrid-2 | FRET melting | – | 1 µM, DNA 0.2 µM | – | ΔTm | 8 ± 0.3 °C
Nc1ncc(-c2cc(-c3cnn(CC(F)(F)F)c3)ncc2F)nc1C(=O)NC1CNCC(F)C1 (stereo not drawn) | BTK | KINOMEscan | – | 1 µM | baseline: DMSO control | remaining binding | 94%
C=CC(=O)N1[C@@H](c2ccc3c(c2)OCO3)c2[nH]c3ccccc3c2C[C@H]1C(=O)N1CCN(C)CC1 | CCNE1 WT-3xFLAG:CDK2 complex | co-IP TMT proteomics, item: NUP98 | HEK-293T | 20 µM, 6 h | baseline: DMSO | log2 fold change | 0.0426
C[n+]1ccc(/C=N/NC(=O)c2cccc(C(=O)N/N=C/c3cc[n+](C)cc3)c2)cc1 | telomeric G4 DNA hybrid-2 | FRET melting | – | 1 µM, DNA 0.2 µM | – | ΔTm | 2.5 ± 1.5 °C
COC1CN([C@H]2CC[C@H]([C@@]3(C)Oc4c(Cl)cc(C(=O)NCc5c(SC)cc(C)[nH]c5=O)c(C)c4O3)CC2)C1 | – | RNA-seq, item: TIMP3 mouse homolog | mouse, HT-1376 xenograft, whole blood | dose not given | baseline: vehicle | log2 fold change | 0.0839
Cc1ncsc1-c1ccc(C(C)NC(=O)C2CC(O)CN2C(=O)C(NC(=O)CCCCCCCCCCN2CCCC(Nc3ncc(Cl)c(Nc4ccccc4S(=O)(=O)C(C)C)n3)C2)C(C)(C)C)cc1 (stereo not drawn) | 22Rv1 | RNA-seq, item: TRIM38 mRNA | – | concentration not given | baseline: DMSO | log2 fold change | -1.1
C[n+]1ccc(/C=N/NC(=O)N/N=C/c2cc[n+](C)cc2)cc1 | telomeric G4 DNA hybrid-2 | FRET melting | – | 1 µM, DNA 0.2 µM, added: duplex DNA competitor 10 µM | – | ΔTm | 1.6 ± 0.2 °C
CNS(=O)(=O)Nc1nccc(Cc2c(C)c3ccc(Oc4ncccc4F)cc3oc2=O)c1F | HCC1937 | cell viability | – | 7 days | – | IC50 | > 1000 nM
C=CC(=O)Nc1cccc(Cn2ncc3cnc(Nc4cnn(CCOC)c4)nc32)c1 | MAK human | binding, KINOMEscan | – | 100 nM | lower = stronger binding | percent of control | 97%
CC(=O)[O-].O.[Cu+2].[O-]c1ccc(Br)cc1C=NCCN1CCOCC1 | – | superoxide scavenging | – | 120 µM | – | inhibition | 33.2%
C[n+]1ccc(/C=N/NC(=O)c2cncc(C(=O)N/N=C/c3cc[n+](C)cc3)n2)cc1 | telomeric G4 DNA hybrid-2 | FRET melting | – | 1 µM, DNA 0.2 µM, added: duplex DNA competitor 10 µM | – | ΔTm | 6.2 ± 0.6 °C
CN1CCCNC(=O)c2cccc(c2)C(=O)NCCCN(C)CCCNc2cccc3c2C(=O)c2cccc(c2C3=O)NCCC1 | SAS | RNA-Seq, item: KIF20B mRNA | – | 1 µM, 6 h | baseline: untreated cells | log2 fold change | -0.716

Excerpt of the above:
Compound | target or system | assay | system | conditions | scale | measurement | value
CC(=O)[O-].O.[Cu+2].[O-]c1ccc(Br)cc1C=NCCN1CCOCC1 | – | superoxide scavenging | – | 120 µM | – | inhibition | 33.2%
